{"data": "Results from different studies", "organism": "SARS-CoV-2", "note": "Protocols differ between the studies behind these lines. Several values in a cell are separate wells, animals, samples, runs or records."}
{"Substance": "Cc1nn(-c2ccc(Cl)cc2)c2c1C(c1ccc(Cl)c(Cl)c1)C(C#N)=C(N)O2 (stereo not shown)", "assay": "RT-qPCR, refers to: viral RNA", "test system": "Vero", "conditions": "1 µM", "scale": "higher means less virus", "measurement": "Ct value", "value": "23.3 cycles"}
{"Substance": "c1ccc(C(O[C@@H]2CCCN(CCc3ccc4c(c3)OCO4)C2)c2ccccc2)cc1", "assay": "viral replication, high-content imaging screen", "conditions": "cell-based", "measurement": "EC50", "value": "87.1 µM"}
{"Substance": "CCN(CC)C(=O)C1(c2ccccc2)CC1CN (stereo not shown)", "assay": "viral replication, anti-nucleoprotein immunostaining", "test system": "Vero E6", "measurement": "IC50", "value": "> 10 µM"}
{"Substance": "CCc1cc(C(N)=S)ccn1", "assay": "viral replication", "test system": "Huh-7", "measurement": "IC50", "value": "> 2 µM"}
{"Substance": "O=C(Nc1ccccc1)OCC(CN1CCCCC1)OC(=O)Nc1ccccc1 (stereo not shown)", "assay": "viral replication, high-content imaging screen", "conditions": "cell-based", "measurement": "EC50", "value": "> 25.1 µM"}
{"Substance": "CCOc1ccccc1CNCc1cccn1-c1nnc(N2CCN(c3ccccc3)CC2)s1", "assay": "cytopathic effect", "test system": "USA_WA1/2020", "conditions": "round 1, 5-point", "measurement": "maximum response", "value": "40.2%"}
{"Substance": "Cc1nn(-c2ccc(Cl)cc2)c2c1C(c1ccc(Br)cc1)C(C#N)=C(N)O2 (stereo not shown)", "test system": "Vero", "conditions": "10 µM", "measurement": "viral titre", "value": "611000 IU/mL"}
{"Substance": "O=c1ccc2ccc(OCCCCN3CCN(c4cccc5sccc45)CC3)cc2[nH]1", "assay": "viral replication, high-content imaging screen", "conditions": "cell-based", "measurement": "EC50", "value": "> 100 µM"}
{"Substance": "CC(C)(C)NCc1ccc(Nc2ccnc3cc(Cl)ccc23)cc1O", "assay": "viral replication", "test system": "293T-ACE2, USA-WA1/2020", "measurement": "EC90", "value": "0.705 µM"}
{"Substance": "NS(=O)(=O)Cc1noc2ccccc12", "assay": "viral replication", "test system": "Huh-7", "measurement": "IC50", "value": "> 2 µM"}
{"Substance": "Cn1cc(CN2CCCC(COc3ccccc3C(=O)N3CCCCC3)C2)c2ccccc21 (stereo not shown)", "assay": "cytopathic effect", "test system": "USA_WA1/2020", "conditions": "retest, 8-point, duplicates", "measurement": "maximum response", "value": "11.9%"}
{"Substance": "CCOC(=O)Nc1ccc(NCc2ccc(F)cc2)nc1N", "assay": "viral replication, GFP plate reader screen", "conditions": "cell-based", "measurement": "EC50", "value": "> 100 µM"}
{"Substance": "CCOC(=O)N1CCC(=C2c3ccc(Cl)cc3CCc3cccnc32)CC1", "conditions": "concentration not given, Paris laboratory", "measurement": "viral replication inhibition", "value": "inactive"}
{"Substance": "calpain inhibitor III", "assay": "viral replication", "test system": "Vero E6, USA-WA1/2020", "measurement": "EC90", "value": "1.03 µM"}
{"Substance": "CN(C(=O)CN(CCO)CC(=O)N(C)C(C)(C)Cc1ccccc1)C(C)(C)Cc1ccccc1", "assay": "viral replication, GFP plate reader screen", "conditions": "cell-based", "measurement": "EC50", "value": "18.6 µM"}
{"Substance": "CC(C)(C)[C@H](NC(=O)C(F)(F)F)C(=O)N1C[C@H]2[C@@H]([C@H]1C(=O)N[C@H](C#N)C[C@@H]1CCNC1=O)C2(C)C", "assay": "viral replication, infectious virus", "test system": "Vero E6", "conditions": "0.0005 µM", "measurement": "inhibition", "value": "3.4%"}
{"Substance": "Cc1ncccc1-c1nc2cc(C(=O)NCCCc3ccccc3)ccc2o1", "assay": "cytopathic effect, cell-based CPE", "test system": "USA_WA1/2020", "conditions": "round 2, 5-point dilution", "measurement": "AC50", "value": "15.8 µM"}
{"Substance": "O=C(O[C@@H]1Cc2c(O)cc(O)cc2O[C@@H]1c1cc(O)c(O)c(O)c1)c1cc(O)c(O)c(O)c1", "assay": "viral replication", "test system": "Vero E6", "conditions": "12.5 µM", "measurement": "CPE inhibition", "value": "0%"}
{"Substance": "CCCc1nn(C)c2c(=O)[nH]c(-c3cc(S(=O)(=O)N4CCN(C)CC4)ccc3OCC)nc12", "assay": "viral replication", "test system": "Huh-7", "measurement": "IC50", "value": "> 2 µM"}
{"Substance": "Cc1cccc(/C=N/Nc2cc(N3CCOCC3)nc(OCCc3ccccn3)n2)c1", "assay": "viral replication, inhibitor", "test system": "Vero E6, USA-WA1/2020", "conditions": "24 h", "measurement": "EC90", "value": "0.048 µM"}
{"Substance": "Nc1ncnc2c1ncn2[C@@H]1O[C@H](CO)C[C@H]1O", "test system": "SB2", "conditions": "concentration not given, 3 h, unit not given", "scale": "relative to: DMSO", "measurement": "viral RNA level", "value": "0.209 and 0.147"}
{"Substance": "O=C(/C=C/c1ccc(O)c(O)c1/C=C/c1ccc(O)c(O)c1)O[C@H](Cc1ccc(O)c(O)c1)C(=O)O", "assay": "viral replication", "test system": "Vero E6", "conditions": "100 µM", "scale": "relative to: mean of replicates", "measurement": "CPE inhibition", "value": "80%"}
{"Substance": "Cc1cc2c(s1)Nc1ccccc1N=C2N1CCN(C)CC1", "test system": "Vero E6", "conditions": "concentration not given, NYC laboratory", "measurement": "viral replication inhibition", "value": "inactive"}
{"Substance": "Cc1ccc2nc(C3CCCN(Cc4cccc(-c5cccnc5)c4)C3)[nH]c(=O)c2c1 (stereo not shown)", "assay": "cytopathic effect", "test system": "USA_WA1/2020", "conditions": "retest, 8-point, duplicates", "measurement": "efficacy", "value": "58.4%"}
{"Substance": "Cc1c(O)cccc1C(=O)N[C@@H](CSc1ccccc1)[C@H](O)CN1C[C@H]2CCCC[C@H]2C[C@H]1C(=O)NC(C)(C)C", "assay": "viral replication, GFP plate reader screen", "conditions": "cell-based", "measurement": "EC50", "value": "5.22 µM"}
{"Substance": "Clc1ccccc1C1(c2ccnc(-c3ccccc3)n2)CCNCC1", "assay": "cytopathic effect", "test system": "USA_WA1/2020", "conditions": "retest, 8-point, duplicates", "measurement": "maximum response", "value": "82.3%"}
{"Substance": "CC[C@H]1CN2CC[C@H]1C[C@@H]2[C@@H](O)c1ccnc2ccc(OC)cc12", "assay": "viral replication, high-content imaging screen", "conditions": "cell-based", "measurement": "EC50", "value": "> 25.1 µM"}
{"Substance": "COc1ccc2c(c1)[C@]13CCCC[C@@H]1[C@H](C2)N(C)CC3", "test system": "Vero E6", "conditions": "concentration not given, NYC laboratory", "measurement": "viral replication inhibition", "value": "inactive"}
{"Substance": "Nc1ncnc2c1ncn2C1CCCO1 (stereo not shown)", "assay": "viral replication", "test system": "Huh-7", "measurement": "IC50", "value": "> 2 µM"}
{"Substance": "COc1ccc(C[C@@H]2c3cc(Oc4cc(C[C@@H]5c6cc(O)c(OC)cc6CCN5C)ccc4O)c(OC)cc3CCN2C)cc1", "assay": "cytopathic effect", "test system": "Vero E6", "conditions": "25 µM, replicate run", "measurement": "mean inhibition", "value": "0%"}
{"Substance": "CCCCCCCCCCCCCCCC(=O)N[C@H]1C[C@@H](O)[C@@H](O)NC(=O)[C@@H]2[C@@H](O)[C@@H](C)CN2C(=O)[C@H]([C@@H](C)O)NC(=O)[C@H]([C@H](O)[C@@H](O)c2ccc(O)cc2)NC(=O)[C@@H]2C[C@@H](O)CN2C(=O)[C@H]([C@@H](C)O)NC1=O", "test system": "Vero", "scale": "relative to: CC50 over IC50", "measurement": "selectivity index", "value": 47}
{"Substance": "C=CCN1CC[C@@]2(C)c3cc(O)ccc3C[C@@H]1[C@@H]2C", "assay": "viral replication", "test system": "A549 expressing ACE2", "conditions": "inactive set pIC50 4", "measurement": "IC50", "value": "> 10 µM"}
{"Substance": "Cc1nn(-c2ccc(Cl)cc2)c2c1C(c1c(Cl)cccc1Cl)C(C#N)=C(N)O2 (stereo not shown)", "assay": "RT-qPCR, refers to: viral RNA", "test system": "Vero", "conditions": "1 µM", "scale": "higher means less virus", "measurement": "Ct value", "value": "23.8 cycles"}
{"Substance": "COc1ccc(CN2CCN(Cc3ccccc3)CC2)cc1", "assay": "viral replication", "test system": "A549 expressing ACE2", "conditions": "inactive set pIC50 4", "measurement": "IC50", "value": "> 10 µM"}
{"Substance": "Cc1ccccc1CN1C(=O)c2ccccc2Sc2ccc(C(=O)NCCCN3CCOCC3)cc21", "assay": "cytopathic effect, cell-based CPE", "test system": "USA_WA1/2020", "measurement": "AC50", "value": "14.1 µM"}
{"Substance": "CC[C@H](NC(=O)[C@H](CS(=O)(=O)CC1CC1)N[C@@H](c1ccc(F)cc1)C(F)(F)F)C(=O)C(=O)NC1CC1", "assay": "viral replication, inhibitor", "test system": "Vero E6, USA-WA1/2020", "conditions": "24 h", "measurement": "EC90", "value": "1.04 µM"}
{"Substance": "CC(=O)[C@H]1CC[C@H]2[C@@H]3CCC4=CC(=O)CC[C@]4(C)[C@H]3CC[C@]12C", "assay": "viral replication, RT-qPCR", "test system": "A549 expressing ACE2", "measurement": "IC50", "value": "> 10 µM"}
{"Substance": "Cc1nn(-c2ccc(Cl)cc2)c2c1C(c1ccc(Cl)cc1)C(C#N)=C(N)O2 (stereo not shown)", "test system": "Vero", "conditions": "10 µM", "measurement": "viral titre", "value": "325000 IU/mL"}
{"Substance": "CCN(CCO)CCCC(C)Nc1ccnc2cc(Cl)ccc12 (stereo not shown)", "assay": "viral replication", "test system": "Vero E6", "conditions": "concentration not given", "measurement": "activity class", "value": "active"}
{"Substance": "CC(Nc1nc(N2CCN(CCN)CC2)nc2ccccc12)c1ccccc1 (stereo not shown)", "assay": "cytopathic effect, cell-based CPE", "test system": "USA_WA1/2020", "conditions": "round 2, 5-point dilution", "measurement": "maximal response", "value": "56.5%"}
{"Substance": "CC(C)=CCc1c(O)ccc(C(=O)/C=C/c2ccc(O)cc2)c1O", "assay": "viral replication", "test system": "Vero E6", "conditions": "6.25 µM", "scale": "relative to: mean of replicates", "measurement": "CPE inhibition", "value": "0%"}
{"Substance": "C#C[C@]1(O)CC[C@H]2[C@@H]3CCC4=CCCC[C@@H]4[C@H]3CC[C@@]21C", "assay": "viral replication, GFP plate reader screen", "conditions": "cell-based", "measurement": "EC50", "value": "> 50.1 µM"}
{"Substance": "CN(C)CCNC(=O)c1ccc2c(c1)C1(CCN(CC3CC3)C1)CN2Cc1ccccc1 (stereo not shown)", "assay": "cytopathic effect", "test system": "USA_WA1/2020", "conditions": "retest, 8-point, duplicates", "measurement": "maximum response", "value": "92%"}
{"note": "A few entries again:"}
{"Substance": "CCCCCCCCCCCCCCCC(=O)N[C@H]1C[C@@H](O)[C@@H](O)NC(=O)[C@@H]2[C@@H](O)[C@@H](C)CN2C(=O)[C@H]([C@@H](C)O)NC(=O)[C@H]([C@H](O)[C@@H](O)c2ccc(O)cc2)NC(=O)[C@@H]2C[C@@H](O)CN2C(=O)[C@H]([C@@H](C)O)NC1=O", "test system": "Vero", "scale": "relative to: CC50 over IC50", "measurement": "selectivity index", "value": 47}
{"Substance": "C#C[C@]1(O)CC[C@H]2[C@@H]3CCC4=CCCC[C@@H]4[C@H]3CC[C@@]21C", "assay": "viral replication, GFP plate reader screen", "conditions": "cell-based", "measurement": "EC50", "value": "> 50.1 µM"}
{"Substance": "NS(=O)(=O)Cc1noc2ccccc12", "assay": "viral replication", "test system": "Huh-7", "measurement": "IC50", "value": "> 2 µM"}
{"Substance": "CC(C)(C)[C@H](NC(=O)C(F)(F)F)C(=O)N1C[C@H]2[C@@H]([C@H]1C(=O)N[C@H](C#N)C[C@@H]1CCNC1=O)C2(C)C", "assay": "viral replication, infectious virus", "test system": "Vero E6", "conditions": "0.0005 µM", "measurement": "inhibition", "value": "3.4%"}
{"Substance": "COc1ccc2c(c1)[C@]13CCCC[C@@H]1[C@H](C2)N(C)CC3", "test system": "Vero E6", "conditions": "concentration not given, NYC laboratory", "measurement": "viral replication inhibition", "value": "inactive"}
{"Substance": "Cc1ccc2nc(C3CCCN(Cc4cccc(-c5cccnc5)c4)C3)[nH]c(=O)c2c1 (stereo not shown)", "assay": "cytopathic effect", "test system": "USA_WA1/2020", "conditions": "retest, 8-point, duplicates", "measurement": "efficacy", "value": "58.4%"}
